# Measurements of several laboratories.
# Each line is one published result; not all experiments were run side by side. Several values in a cell are separate wells, animals, samples, runs or records. Numbers after ± are the reported error.
# Organism: Salmonella typhimurium
Compound,test,system,conditions,scale,quantity,result
Nc1c2ccccc2nc2ccccc12,"Ames test, confirmatory",TA1537,75 µg/plate,reference: solvent control,revertant ratio,62.5
CN(N=O)c1ccc(F)cc1,"mutagenicity, Ames plate incorporation",TA1537,"5000 µg/plate, 3 d, without S9, methanol",,revertant colonies per plate,7.7 ± 2
O=[N+]([O-])c1ccc(NC2CCNCC2)c(C(F)(F)F)c1,"genotoxicity, SOS/umu test",TA1535/pSK1002,"0.5 mg/mL, 4 h, without S9, full range",,induction factor,0.7
COc1cccc(-c2n[nH]c(SCc3ccccn3)n2)c1OC,"Ames test, preincubation",TA1535,"0.25 mg/plate, with rat liver S9",,revertant colonies per plate,17
CC(=O)N1CCC(C(=O)N2CCN3C(=O)c4cc(-c5ccccc5)ccc4NC(=O)C3C2)CC1 (centres unmarked),,TA98,"1581 µg/plate, with: rat liver S9",reference: vehicle,fold increase in revertants,0.9
N#C[C@@]1(n2ccc(N)nc2=O)O[C@H](CO)[C@@H](O)[C@H]1O,,TA98,"25 µM, without S9",,viability,97%
CN(CC(C)(C)C)N=O,"mutagenicity, Ames plate incorporation",TA1537,"5000 µg/plate, without S9, methanol",,revertant colonies per plate,15 ± 10
CC(C)(C)c1sc2ncnc(Oc3c(F)cccc3OC(F)(F)F)c2c1-c1ccc(Cl)cc1,mini-Ames,"TA98, TA100","concentration not given, with and without S9",,mutagenicity,negative
Nc1ncnc2c1c(Oc1cc(C(F)(F)F)ccn1)nn2C1CC1,mini Ames test,TA98 and TA100,"concentration not given, with and without S9, negative",,mutagenicity,negative
Nc1ccc2cc3ccccc3cc2c1,"Ames test, initial",TA1535,"1.0 µg/plate, with: rat liver S9",reference: solvent control,revertant ratio,7
O=[N+]([O-])c1ccc(N2CCC(NCCC(O)c3ccc(F)c4ccccc34)CC2)c(C(F)(F)F)c1 (centres unmarked),"SOS response, SOS/umu test",TA1535/pSK1002,"0.001 mg/mL, 4 h, without S9 activation",,umu induction factor,0.35
Nc1c2ccccc2nc2ccccc12,plate incorporation Ames test,TA1537,100 µg per plate,,revertant colonies per plate,1540
O=[N+]([O-])c1ccc2c(c1)Cc1ccccc1-2,"Ames test, initial",TA98,1.0 µg/plate,reference: solvent control,revertant ratio,7
CC(C)N(C)N=O,"mutagenicity, Ames plate incorporation",TA1535,"150 µg/plate, 3 d, without S9, methanol",,revertant colonies per plate,20.3 ± 3
Nc1ccc2cc3ccccc3cc2c1,,TA1537,"5 µg/plate, with: rat liver S9",,mean revertants per plate,356 revertants/plate
OC(CCN1CC=C(c2ccc(F)cc2)CC1)c1ccc(F)c2ccccc12 (centres unmarked),"genotoxicity, SOS/umu test",TA1535/pSK1002,"0.008 mg/mL, 4 h, with S9, lower range",,induction factor,0.6
Cc1cc(C(=O)NC(C)(C)COc2cccc3c2C(N)=NS(=O)(=O)N3)cc(C)n1,"Ames test, initial",TA100,"150 µg/plate, with: rat liver S9",reference: solvent control,revertant ratio,1.2
CNC(=O)c1c(N(C)N=O)ncn1C,plate incorporation,"TA1537, water","50 µg/plate, without S9",,revertant colonies per plate,9.7 ± 1
O=C(O)CCCOc1ccc(F)cc1-c1cc(-c2ccccc2C(F)(F)F)n(-c2ccccc2)n1,Ames test,TA1535,"concentration not given, without S9 metabolic activation",,growth-inhibiting concentration,≥ 625 µg/plate
O=[N+]([O-])c1ccc(N2CCN(CCC(O)c3ccc(F)cc3)CC2)c(C(F)(F)F)c1 (centres unmarked),SOS/umu test,TA1535/pSK1002,"0.25 mg/mL, 4 h, without S9, lower range",,survival,224%
Nc1ccc2cc3ccccc3cc2c1,Ames test,TA1535,"0.4 µg/well, 48 h, with S9",,revertant colonies,244 colonies/well and 200 colonies/well and 168 colonies/well
Fc1ccc(C2=CCNCC2)cc1,"genotoxicity, SOS/umu test",TA1535/pSK1002,"0.004 mg/mL, 4 h, without S9, full range",,induction factor,1.3
CC(C)N(N=O)C(C)C,"mutagenicity, Ames plate incorporation",TA98,"1500 µg/plate, without S9, methanol",,revertant colonies per plate,31.3 ± 8

# A few entries again:
Compound,test,system,conditions,scale,quantity,result
CN(N=O)c1ccc(F)cc1,"mutagenicity, Ames plate incorporation",TA1537,"5000 µg/plate, 3 d, without S9, methanol",,revertant colonies per plate,7.7 ± 2
O=[N+]([O-])c1ccc(NC2CCNCC2)c(C(F)(F)F)c1,"genotoxicity, SOS/umu test",TA1535/pSK1002,"0.5 mg/mL, 4 h, without S9, full range",,induction factor,0.7
CNC(=O)c1c(N(C)N=O)ncn1C,plate incorporation,"TA1537, water","50 µg/plate, without S9",,revertant colonies per plate,9.7 ± 1
